{"data": "Experimental data from different studies", "note": "Every numbered part comes from another study and shows a few of its results, in no order."}
{"data": "Study 1", "target": "Centromere-binding protein 1, full length, His-tagged (CBF1, Saccharomyces cerevisiae, UniProt P17106, residues 1-351)", "technique": "competition protein-binding microarray", "form": "double-stranded DNA, one strand shown", "medium": "in vitro", "tested at": "2 µM", "setting": "whole 60-bp probe, lowest competitor level", "with": "Pho4 competitor, 0.05 µM", "reading": "higher = stronger binding", "sequence of UniProt P17106 (whole entry, looked up)": "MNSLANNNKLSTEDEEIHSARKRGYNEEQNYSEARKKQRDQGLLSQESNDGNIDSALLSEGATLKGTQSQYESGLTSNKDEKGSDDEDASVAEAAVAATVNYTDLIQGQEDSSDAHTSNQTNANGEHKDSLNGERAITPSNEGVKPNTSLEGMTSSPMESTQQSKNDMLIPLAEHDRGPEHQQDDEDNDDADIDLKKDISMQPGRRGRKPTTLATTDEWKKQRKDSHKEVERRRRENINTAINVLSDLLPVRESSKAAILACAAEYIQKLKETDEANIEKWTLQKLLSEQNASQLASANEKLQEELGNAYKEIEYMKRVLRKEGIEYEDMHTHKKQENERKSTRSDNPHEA"}
{"Strand": "CGGGGTTAAGTTTGCCACGTGGGTGGCTTGCAGCAGGTCTTGATTCGCTTGACGCTGCTG", "fluorescence intensity": "580 a.u."}
{"Strand": "CTTTCCCGATCTTGTCACACTACTTTAGCACATTTGGTCTTGATTCGCTTGACGCTGCTG", "fluorescence intensity": "95.6 a.u."}
{"Strand": "CATGCTTTTGGGTTACCACATTCAACAATAACTCGAGTCTTGATTCGCTTGACGCTGCTG", "fluorescence intensity": "100 a.u."}
{"Strand": "GTTCTGGTGGTGGTTACCGTGCCAGGTTGTCTGGTGGTCTTGATTCGCTTGACGCTGCTG", "fluorescence intensity": "62.4 a.u."}
{"data": "Study 2", "target": "Histone acetyltransferase KAT6A, winged helix 2, GST fusion (KAT6A, Homo sapiens, UniProt Q92794, residues 85-181)", "technique": "protein binding microarray", "form": "double-stranded DNA, one strand shown", "medium": "in vitro", "tested at": "not given", "setting": "8-mer, flanks averaged, mean of 2 arrays, mostly near background", "reference": "not given", "reading": "higher = stronger binding", "Residues (chain)": "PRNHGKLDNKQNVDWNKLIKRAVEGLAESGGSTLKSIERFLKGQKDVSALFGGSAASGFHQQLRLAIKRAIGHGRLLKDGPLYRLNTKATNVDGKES"}
{"Strand": "CAGGGTCA", "E-score": 0.016}
{"Strand": "CGTGATGC", "E-score": -0.0932}
{"Strand": "ACTCCTCT", "E-score": -0.119}
{"Strand": "TCGGTGCA", "E-score": 0.0838}
{"Strand": "CGGCCAAC", "E-score": 0.0379}
{"Strand": "CACGCGGC", "E-score": 0.0567}
{"Strand": "GCATGGCA", "E-score": 0.182}
{"Strand": "CGCAAGAC", "E-score": -0.0233}
{"Strand": "ACGTGCTG", "E-score": -0.0275}
{"data": "Study 3", "target": "Sal-like protein 4, full length isoform A (SALL4, Homo sapiens, UniProt Q9UJQ4, residues 1-1053)", "technique": "universal PBM", "form": "double-stranded DNA, one strand shown", "medium": "in vitro", "tested at": "600 nM", "setting": "8-mer, flanks averaged, mean of replicates", "reading": "higher = stronger binding", "sequence of UniProt Q9UJQ4 (whole entry, looked up)": "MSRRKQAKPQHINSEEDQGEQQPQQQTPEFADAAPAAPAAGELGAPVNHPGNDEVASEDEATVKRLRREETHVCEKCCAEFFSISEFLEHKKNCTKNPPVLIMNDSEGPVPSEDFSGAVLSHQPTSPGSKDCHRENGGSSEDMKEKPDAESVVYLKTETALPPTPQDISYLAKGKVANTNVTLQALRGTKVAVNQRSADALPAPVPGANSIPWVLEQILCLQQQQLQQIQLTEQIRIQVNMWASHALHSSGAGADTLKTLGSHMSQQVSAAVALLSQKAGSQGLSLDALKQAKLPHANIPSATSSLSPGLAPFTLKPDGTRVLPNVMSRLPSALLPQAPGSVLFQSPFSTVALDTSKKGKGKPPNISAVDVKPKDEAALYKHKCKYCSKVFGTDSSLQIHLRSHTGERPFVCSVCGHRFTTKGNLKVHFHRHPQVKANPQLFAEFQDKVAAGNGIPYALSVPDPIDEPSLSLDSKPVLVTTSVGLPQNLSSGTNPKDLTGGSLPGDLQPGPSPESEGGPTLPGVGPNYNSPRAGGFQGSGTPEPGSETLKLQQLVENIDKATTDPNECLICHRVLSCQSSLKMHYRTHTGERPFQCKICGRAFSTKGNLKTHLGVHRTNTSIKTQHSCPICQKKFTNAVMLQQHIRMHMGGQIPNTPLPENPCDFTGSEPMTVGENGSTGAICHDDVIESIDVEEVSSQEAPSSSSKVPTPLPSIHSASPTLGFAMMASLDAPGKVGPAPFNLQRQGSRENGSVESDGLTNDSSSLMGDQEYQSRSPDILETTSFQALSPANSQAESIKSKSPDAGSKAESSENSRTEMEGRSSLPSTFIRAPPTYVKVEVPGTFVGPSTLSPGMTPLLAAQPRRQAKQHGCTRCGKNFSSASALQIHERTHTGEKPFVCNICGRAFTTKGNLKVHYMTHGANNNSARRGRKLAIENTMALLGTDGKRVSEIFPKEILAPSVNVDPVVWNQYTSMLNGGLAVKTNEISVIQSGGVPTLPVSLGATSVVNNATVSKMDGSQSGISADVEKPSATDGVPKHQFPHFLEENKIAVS"}
{"Strand": "AATGGTTG", "E-score": 0.0423}
{"Strand": "AGTGATAG", "E-score": 0.0694}
{"Strand": "ATCGCCAA", "E-score": -0.0431}
{"Strand": "GATCCTGC", "E-score": -0.29}
{"Strand": "CAGCCGGG", "E-score": -0.378}
{"Strand": "TCCACCCA", "E-score": -0.128}
{"Strand": "CCAATACG", "E-score": 0.0513}
{"Strand": "GGGAGAAC", "E-score": -0.317}
{"Strand": "CAATCCGC", "E-score": 0.00363}
{"data": "Single results of other studies"}
{"Molecule": "PhoQ, residues 284 288 289 292 302 303 GTAMQF", "target": "PhoP, residues 12 14 15 18 19 VHTVL (Escherichia coli, UniProt P23836)", "assay": "Sort-seq, item: YFP reporter", "test system": "E. coli", "setting": "PhoQ-PhoP variant library, with: 10 µM Mg2+", "how to read": "reference: high Mg2+ state, higher = stronger signaling", "measurement": "fold induction", "result": 3.04}
{"note": "Some of these lines once more (study 3):"}
{"Strand": "CAGCCGGG", "E-score": -0.378}
{"Strand": "TCCACCCA", "E-score": -0.128}
{"Strand": "CCAATACG", "E-score": 0.0513}
